# Experimental data of several laboratories.
# Each line is one published result; not all experiments were run side by side. ± marks the error that the study gave.
# UniProt P10635, sequence (whole entry, looked up): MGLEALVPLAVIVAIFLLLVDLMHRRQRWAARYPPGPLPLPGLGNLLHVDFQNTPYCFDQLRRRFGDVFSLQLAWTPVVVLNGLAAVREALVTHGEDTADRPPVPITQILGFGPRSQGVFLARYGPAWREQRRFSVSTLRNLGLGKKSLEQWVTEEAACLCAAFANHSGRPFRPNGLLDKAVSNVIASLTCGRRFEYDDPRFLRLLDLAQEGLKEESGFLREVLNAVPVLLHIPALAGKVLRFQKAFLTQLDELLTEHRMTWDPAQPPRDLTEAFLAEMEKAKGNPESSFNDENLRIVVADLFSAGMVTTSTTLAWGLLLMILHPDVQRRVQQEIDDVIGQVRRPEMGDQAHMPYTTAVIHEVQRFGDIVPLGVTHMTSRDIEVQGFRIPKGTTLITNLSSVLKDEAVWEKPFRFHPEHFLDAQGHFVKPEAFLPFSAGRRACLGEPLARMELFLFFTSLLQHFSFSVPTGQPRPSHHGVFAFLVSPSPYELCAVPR
Structure (SMILES),target or system,assay,system,setting,scale,endpoint,result
[123I]c1ccc2nc(-c3ccc(-n4ccnn4)nc3)cn2c1,,,"male Wistar rat, small intestine","intravenous, 4 MBq, 5 min",,tissue uptake,2.84 ± 0.292 %ID/g
CCCC[C@H](NC(=O)CNC(=O)CNC(=O)[C@H](CCCCNC(=O)[C@H](CC(=O)O)NC(=O)C(C)c1ccc(CC(C)C)cc1)NC(=O)CN1CCN(CC(=O)O)CCN(CC(=O)O)CCN(CC(=O)O)CC1)C(=O)N[C@H]1CC(=O)NCCCC[C@@H](C(N)=O)NC(=O)[C@H](Cc2c[nH]c3ccccc23)NC(=O)[C@H](CCCNC(=N)N)NC(=O)[C@@H](Cc2ccccc2)NC(=O)[C@H](Cc2c[nH]cn2)NC1=O (stereo partly drawn) [lutetium-177 labelled],,,"C57 mouse, brain","intravenous, 2 h, added: 10 µg NDP-MSH co-injection",,tissue uptake,0.07 ± 0.02 %ID/g
COc1ccc(Nc2nc(Nc3ccc(OCCOCCOCC[18F])cc3)ncc2Br)cc1,,,"ICR mice, S180 tumour-bearing, bone","intravenous, 370 kBq, 60 min",,tissue uptake,3.9 ± 0.17 %ID/g
COc1cccc(OC)c1-c1cc(C(=O)NC2(C(=O)O)C3CC4CC(C3)CC2C4)nn1-c1ccc(C(=O)N(C)CCOCCOCCN(C)C(=O)[C@H](CCCCNC(=O)[C@H](CC(C)C)NC(=O)C2OC2C(=O)O)NC(=O)CN2CCN(CC(=O)[O-])CCN(CC(=O)[O-])CCN(CC(=O)[O-])CC2)cc1C(C)C.[177Lu+3] (mixture of isomers),,,"mouse, HT-29 xenograft, kidney",4 h post injection,,tissue uptake,11.9 %ID/g
N#C[C@@H]1CC(F)(F)CN1C(=O)CNC(=O)c1ccnc2c(NC(=O)[C@H](CCCCNC(=O)CCOCCOCCOCCOCCOCCOCCNC(=O)CN3CCN(CC(=O)[O-])CCN(CC(=O)[O-])CCN(CC(=O)[O-])CC3)NC(=O)CCCc3ccc(I)cc3)cccc12.[177Lu+3],,,"mouse, U-87 MG tumour xenograft, spleen",4 h,,tissue uptake,1.31 ± 0.64 %ID/g
CNC(=O)C1CCCN(C(=O)C2CC3CCC2N3C(=O)[C@@H]2C[C@@H](O)CN2C(=O)NCc2cccc(Cl)c2F)C1 (mixture of isomers),"Cytochrome P450 2D6 (CYP2D6, Homo sapiens, UniProt P10635)","enzyme activity, inhibitor, time-dependent inhibition",,"0.206 µM, preincubated without NADPH",,dextrorphan formation,150 ng/mL
Nc1ncc(-c2cc(-c3cnn(CC(F)(F)F)c3)ncc2F)nc1C(=O)NC1CNCC(F)C1 (stereo not drawn),MARK3,KINOMEscan,,1 µM,reference: DMSO control,remaining binding,100%
COc1cccc(OC)c1-c1cc(C(=O)NC2(C(=O)O)C3CC4CC(C3)CC2C4)nn1-c1ccc(C(=O)N(C)CCCN(C)CCCN(C)C(=O)[C@H](CCCCNC(=O)[C@H](CC(C)C)NC(=O)C2OC2C(=O)O)NC(=O)CN2CCN(CC(=O)[O-])CCN(CC(=O)[O-])CCN(CC(=O)[O-])CC2)cc1C(C)C.[177Lu+3] (mixture of isomers),,,"mouse, HT-29 xenograft, muscle",4 h post injection,,tissue uptake,1.7 %ID/g
O=C(O)CCCOc1ccc([18F])cc1-c1cc(-c2ccccc2C(F)(F)F)n(-c2ccccc2)n1,,,"mouse, muscle","intravenous, dose not given, 5 min",,tissue uptake,2.25 ± 0.2 %ID/g
COc1cccc(OC)c1-c1cc(C(=O)NC2(C(=O)O)C3CC4CC(C3)CC2C4)nn1-c1ccc(C(=O)N(C)CCCN(C)C(=O)[C@H](CCCCNC(=O)[C@H](CC(C)C)NC(=O)C2OC2C(=O)O)NC(=O)CN2CCN(CC(=O)[O-])CCN(CC(=O)[O-])CCN(CC(=O)[O-])CC2)cc1C(C)C.[177Lu+3] (mixture of isomers),,,"mouse, HT-29 xenograft, spleen",72 h post injection,,tissue uptake,0.25 %ID/g
N#C[C@@H]1CC(F)(F)CN1C(=O)CNC(=O)c1ccnc2c(NC(=O)[C@@H](N)CCCCNC(=O)CCOCCOCCOCCOCCOCCOCCNC(=O)CN3CCN(CC(=O)[O-])CCN(CC(=O)[O-])CCN(CC(=O)[O-])CC3)cccc12.[177Lu+3],,,"mouse, U-87 MG tumour xenograft, salivary gland",1 h,,tissue uptake,0.85 ± 0.47 %ID/g
Cc1ncsc1-c1ccc(C(C)NC(=O)C2CC(O)CN2C(=O)C(NC(=O)CCCCCCCCCCN2CCCC(Nc3ncc(Cl)c(Nc4ccccc4S(=O)(=O)C(C)C)n3)C2)C(C)(C)C)cc1 (stereo not drawn),22Rv1,"RNA-seq, item: PRIM1 mRNA",,concentration not given,reference: DMSO,log2 fold change,-1.13
C=C(NC(=O)c1csc(-c2nc3c(cc2O)-c2nc(cs2)C(=O)NC(C(C)O)C(=O)NC(=C(C)OC)c2nc(cs2)C(=O)NC2c4nc(cs4)C(=O)NC(COC(=O)c4c5c6c(cccc6n4O)COC(=O)C(OC4CC(C)(O)C(N(C)C)C(C)O4)C2OC5)c2nc-3cs2)n1)C(N)=O (stereo not drawn),,,"cynomolgus monkey, male, plasma","intravenous infusion, 3 mg/kg, multiple doses, day 7",,AUC(0-inf),21600 ng·h/mL
COC1CN([C@H]2CC[C@H]([C@@]3(C)Oc4c(Cl)cc(C(=O)NCc5c(SC)cc(C)[nH]c5=O)c(C)c4O3)CC2)C1,,"RNA-seq, item: UBAP1 mouse homolog","mouse, HT-1376 xenograft, whole blood",dose not given,reference: vehicle,log2 fold change,0.467
[11CH3]N1CCC(NC(=O)c2cc(-c3c(O)cc(O)cc3Oc3ccc([N+](=O)[O-])cc3)on2)CC1,,,"Wistar rat, female, healthy, urine","intravenous, 60 min",,tissue uptake,11.3 ± 1.4 %ID
COc1ccc(Nc2nc(Nc3ccc(OCCOCC[18F])cc3)ncc2Br)cc1,,,"ICR mice, S180 tumour-bearing, tumor","intravenous, 370 kBq, 60 min",,tissue uptake,4.07 ± 0.5 %ID/g
COc1cccc(OC)c1-c1cc(C(=O)NC2(C(=O)O)C3CC4CC(C3)CC2C4)nn1-c1ccc(C(=O)NCCNC(=O)[C@H](CCCCNC(=O)[C@H](CC(C)C)NC(=O)C2OC2C(=O)O)NC(=O)CN2CCN(CC(=O)[O-])CCN(CC(=O)[O-])CCN(CC(=O)[O-])CC2)cc1C(C)C.[177Lu+3] (mixture of isomers),,,"mouse, HT-29 xenograft, muscle",24 h post injection,,tissue uptake,0.12 %ID/g
CNS(=O)(=O)Nc1nccc(Cc2c(C)c3ccc(Oc4ncccc4F)cc3oc2=O)c1F,Capan-2,cell viability,,7 days,,IC50,3.07 nM
